Published values gathered from unrelated publications.
Numbered parts are unrelated; each lists some results of a single study. “And” joins repeats or separate records; there may be more than shown.
Chain of UniProt P48736 (whole entry, looked up): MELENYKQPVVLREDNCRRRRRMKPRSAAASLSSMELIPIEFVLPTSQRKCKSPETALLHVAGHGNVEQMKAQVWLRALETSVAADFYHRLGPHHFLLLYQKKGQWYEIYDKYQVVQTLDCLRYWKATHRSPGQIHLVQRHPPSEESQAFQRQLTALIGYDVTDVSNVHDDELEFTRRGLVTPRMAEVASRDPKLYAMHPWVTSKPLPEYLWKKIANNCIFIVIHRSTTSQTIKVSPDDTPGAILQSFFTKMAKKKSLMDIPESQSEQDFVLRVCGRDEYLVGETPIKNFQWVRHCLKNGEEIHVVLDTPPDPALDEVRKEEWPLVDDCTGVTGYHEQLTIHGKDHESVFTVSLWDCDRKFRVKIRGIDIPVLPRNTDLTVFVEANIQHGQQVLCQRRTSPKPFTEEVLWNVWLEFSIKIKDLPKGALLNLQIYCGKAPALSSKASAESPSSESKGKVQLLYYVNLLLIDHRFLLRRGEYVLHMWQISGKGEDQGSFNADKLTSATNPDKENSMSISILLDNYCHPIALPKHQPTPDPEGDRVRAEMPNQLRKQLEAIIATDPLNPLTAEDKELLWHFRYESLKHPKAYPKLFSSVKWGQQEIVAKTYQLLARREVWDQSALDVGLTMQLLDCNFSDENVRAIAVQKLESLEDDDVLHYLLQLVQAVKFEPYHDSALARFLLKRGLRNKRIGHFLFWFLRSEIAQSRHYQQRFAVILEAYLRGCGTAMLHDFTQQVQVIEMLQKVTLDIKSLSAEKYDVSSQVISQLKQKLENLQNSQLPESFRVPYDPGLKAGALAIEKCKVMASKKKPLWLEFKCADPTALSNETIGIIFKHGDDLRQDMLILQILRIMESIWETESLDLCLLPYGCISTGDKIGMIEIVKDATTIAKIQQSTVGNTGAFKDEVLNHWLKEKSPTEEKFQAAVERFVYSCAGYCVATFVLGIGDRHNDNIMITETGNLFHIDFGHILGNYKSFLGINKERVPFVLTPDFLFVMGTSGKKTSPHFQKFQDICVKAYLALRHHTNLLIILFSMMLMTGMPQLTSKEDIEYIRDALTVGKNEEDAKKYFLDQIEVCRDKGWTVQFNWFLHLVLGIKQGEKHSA
Chain of UniProt Q04771 (whole entry, looked up): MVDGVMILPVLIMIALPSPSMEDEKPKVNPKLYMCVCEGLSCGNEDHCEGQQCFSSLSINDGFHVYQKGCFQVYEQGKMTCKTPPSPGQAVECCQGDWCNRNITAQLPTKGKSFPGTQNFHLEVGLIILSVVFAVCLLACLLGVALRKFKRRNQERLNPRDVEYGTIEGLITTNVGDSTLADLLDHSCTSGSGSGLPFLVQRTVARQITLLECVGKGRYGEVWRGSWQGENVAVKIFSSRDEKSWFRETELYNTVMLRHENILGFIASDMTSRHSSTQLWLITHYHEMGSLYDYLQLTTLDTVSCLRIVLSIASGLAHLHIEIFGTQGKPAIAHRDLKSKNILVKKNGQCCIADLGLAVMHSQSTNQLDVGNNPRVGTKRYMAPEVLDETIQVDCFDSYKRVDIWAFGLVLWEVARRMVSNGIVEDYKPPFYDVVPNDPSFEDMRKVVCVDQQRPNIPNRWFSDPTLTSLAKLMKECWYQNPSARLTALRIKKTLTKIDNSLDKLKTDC
Chain of UniProt P15735 (whole entry, looked up): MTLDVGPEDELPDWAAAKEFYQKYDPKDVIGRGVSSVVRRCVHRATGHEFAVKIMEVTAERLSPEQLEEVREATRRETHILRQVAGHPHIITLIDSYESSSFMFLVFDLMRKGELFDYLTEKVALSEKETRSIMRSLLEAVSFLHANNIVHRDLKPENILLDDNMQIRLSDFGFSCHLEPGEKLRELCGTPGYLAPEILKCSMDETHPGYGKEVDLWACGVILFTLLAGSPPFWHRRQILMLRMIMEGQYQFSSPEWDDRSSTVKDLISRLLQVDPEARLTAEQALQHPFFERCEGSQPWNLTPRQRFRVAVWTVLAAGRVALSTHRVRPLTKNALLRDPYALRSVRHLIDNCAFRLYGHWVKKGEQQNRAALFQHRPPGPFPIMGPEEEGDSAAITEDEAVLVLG
Chain of UniProt Q9P289 (whole entry, looked up): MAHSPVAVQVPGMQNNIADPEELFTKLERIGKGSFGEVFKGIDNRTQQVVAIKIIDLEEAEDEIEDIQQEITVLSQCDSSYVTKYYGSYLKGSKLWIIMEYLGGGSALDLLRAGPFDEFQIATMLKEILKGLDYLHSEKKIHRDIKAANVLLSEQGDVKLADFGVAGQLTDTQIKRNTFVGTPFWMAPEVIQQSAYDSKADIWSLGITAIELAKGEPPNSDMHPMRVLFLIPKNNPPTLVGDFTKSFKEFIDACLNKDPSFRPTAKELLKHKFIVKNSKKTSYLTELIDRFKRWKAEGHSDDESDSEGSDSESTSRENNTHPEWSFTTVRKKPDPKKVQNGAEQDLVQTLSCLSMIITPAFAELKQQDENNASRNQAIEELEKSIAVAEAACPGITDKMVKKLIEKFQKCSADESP
Chain of UniProt Q02779 (whole entry, looked up): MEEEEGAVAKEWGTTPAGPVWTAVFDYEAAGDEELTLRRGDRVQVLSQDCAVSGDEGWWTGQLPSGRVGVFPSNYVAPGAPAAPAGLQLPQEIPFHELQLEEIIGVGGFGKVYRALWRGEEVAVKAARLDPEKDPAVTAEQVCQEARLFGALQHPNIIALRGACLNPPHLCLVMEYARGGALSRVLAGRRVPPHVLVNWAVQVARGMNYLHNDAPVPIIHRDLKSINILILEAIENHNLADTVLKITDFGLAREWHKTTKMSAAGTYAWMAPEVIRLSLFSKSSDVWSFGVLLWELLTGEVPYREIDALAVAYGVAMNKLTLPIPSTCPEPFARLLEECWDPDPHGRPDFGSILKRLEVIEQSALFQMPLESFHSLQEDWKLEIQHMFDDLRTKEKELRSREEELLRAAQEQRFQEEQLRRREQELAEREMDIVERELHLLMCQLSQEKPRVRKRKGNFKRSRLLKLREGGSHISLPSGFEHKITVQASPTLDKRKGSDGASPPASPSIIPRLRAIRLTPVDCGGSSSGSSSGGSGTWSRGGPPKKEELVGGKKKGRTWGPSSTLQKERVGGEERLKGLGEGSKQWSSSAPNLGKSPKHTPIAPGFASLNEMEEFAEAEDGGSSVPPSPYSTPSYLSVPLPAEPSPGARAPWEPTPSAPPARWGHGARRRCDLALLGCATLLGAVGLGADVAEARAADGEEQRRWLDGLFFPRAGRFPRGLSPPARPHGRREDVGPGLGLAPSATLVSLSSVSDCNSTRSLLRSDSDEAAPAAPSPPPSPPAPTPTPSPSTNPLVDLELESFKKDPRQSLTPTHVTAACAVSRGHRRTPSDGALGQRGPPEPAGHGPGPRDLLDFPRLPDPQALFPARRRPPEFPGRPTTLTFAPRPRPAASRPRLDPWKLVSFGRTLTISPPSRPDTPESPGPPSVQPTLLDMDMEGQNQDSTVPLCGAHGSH
Chain of UniProt Q8IY84 (whole entry, looked up): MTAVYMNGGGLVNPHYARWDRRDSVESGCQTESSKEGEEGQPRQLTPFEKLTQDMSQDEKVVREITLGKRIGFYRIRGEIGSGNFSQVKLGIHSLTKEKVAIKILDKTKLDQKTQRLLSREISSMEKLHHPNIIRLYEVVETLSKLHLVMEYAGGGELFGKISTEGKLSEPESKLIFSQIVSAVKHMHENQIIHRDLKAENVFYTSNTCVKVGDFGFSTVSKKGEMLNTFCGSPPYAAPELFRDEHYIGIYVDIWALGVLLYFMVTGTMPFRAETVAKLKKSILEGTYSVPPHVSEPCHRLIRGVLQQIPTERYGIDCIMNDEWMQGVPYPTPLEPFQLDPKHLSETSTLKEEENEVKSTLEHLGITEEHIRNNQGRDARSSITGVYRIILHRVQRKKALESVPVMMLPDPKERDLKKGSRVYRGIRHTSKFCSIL
Chain of UniProt P07949 (whole entry, looked up): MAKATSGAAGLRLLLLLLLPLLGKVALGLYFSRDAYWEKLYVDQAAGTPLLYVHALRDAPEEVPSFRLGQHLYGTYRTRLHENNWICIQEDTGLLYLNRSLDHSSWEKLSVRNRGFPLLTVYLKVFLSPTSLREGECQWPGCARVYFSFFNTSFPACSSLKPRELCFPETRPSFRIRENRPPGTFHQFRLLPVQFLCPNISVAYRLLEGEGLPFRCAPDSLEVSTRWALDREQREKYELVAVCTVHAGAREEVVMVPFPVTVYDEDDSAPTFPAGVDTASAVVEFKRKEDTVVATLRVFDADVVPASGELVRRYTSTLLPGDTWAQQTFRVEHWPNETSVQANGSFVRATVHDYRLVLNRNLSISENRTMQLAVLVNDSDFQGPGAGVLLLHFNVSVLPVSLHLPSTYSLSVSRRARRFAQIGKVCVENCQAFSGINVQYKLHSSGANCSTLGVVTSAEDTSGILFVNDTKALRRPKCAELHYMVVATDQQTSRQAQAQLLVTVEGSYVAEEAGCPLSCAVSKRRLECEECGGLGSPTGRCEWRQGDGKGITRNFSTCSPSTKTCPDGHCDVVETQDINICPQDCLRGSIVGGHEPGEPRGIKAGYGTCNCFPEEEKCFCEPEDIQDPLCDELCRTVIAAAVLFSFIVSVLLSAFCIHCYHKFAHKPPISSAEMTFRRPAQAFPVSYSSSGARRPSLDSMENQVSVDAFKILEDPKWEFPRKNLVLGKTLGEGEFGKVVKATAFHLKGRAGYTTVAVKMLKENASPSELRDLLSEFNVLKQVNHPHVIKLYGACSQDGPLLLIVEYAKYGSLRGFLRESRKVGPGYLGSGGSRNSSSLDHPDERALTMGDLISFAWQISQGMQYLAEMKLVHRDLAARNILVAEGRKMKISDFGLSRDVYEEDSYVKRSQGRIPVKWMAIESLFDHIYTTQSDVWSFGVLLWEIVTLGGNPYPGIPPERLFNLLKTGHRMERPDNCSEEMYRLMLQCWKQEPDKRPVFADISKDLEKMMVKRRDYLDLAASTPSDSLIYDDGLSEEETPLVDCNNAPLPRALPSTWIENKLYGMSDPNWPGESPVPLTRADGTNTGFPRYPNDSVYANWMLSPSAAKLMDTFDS

Series 1
Cell line: HaCaT
Concentration: 100 µM
Time: 60 h
| Compound | viability |
| --- | --- |
| COc1ncnc(NS(=O)(=O)c2ccc(N)cc2)c1OC | 134% |
| Oc1ncnc2[nH]ncc12 | 147% |
| CN1CCN(c2c(F)cc3c(=O)c(C(=O)O)cn(CCF)c3c2F)CC1 | 141% |

Series 2
Target: Serine/threonine-protein kinase TAO3 (TAOK3, Homo sapiens, UniProt Q9H2K8)
Read-out: enzyme activity
Mode: inhibitor
Concentration: 0.5 µM
Reference: control
Construct (Q9H2K8 1-898): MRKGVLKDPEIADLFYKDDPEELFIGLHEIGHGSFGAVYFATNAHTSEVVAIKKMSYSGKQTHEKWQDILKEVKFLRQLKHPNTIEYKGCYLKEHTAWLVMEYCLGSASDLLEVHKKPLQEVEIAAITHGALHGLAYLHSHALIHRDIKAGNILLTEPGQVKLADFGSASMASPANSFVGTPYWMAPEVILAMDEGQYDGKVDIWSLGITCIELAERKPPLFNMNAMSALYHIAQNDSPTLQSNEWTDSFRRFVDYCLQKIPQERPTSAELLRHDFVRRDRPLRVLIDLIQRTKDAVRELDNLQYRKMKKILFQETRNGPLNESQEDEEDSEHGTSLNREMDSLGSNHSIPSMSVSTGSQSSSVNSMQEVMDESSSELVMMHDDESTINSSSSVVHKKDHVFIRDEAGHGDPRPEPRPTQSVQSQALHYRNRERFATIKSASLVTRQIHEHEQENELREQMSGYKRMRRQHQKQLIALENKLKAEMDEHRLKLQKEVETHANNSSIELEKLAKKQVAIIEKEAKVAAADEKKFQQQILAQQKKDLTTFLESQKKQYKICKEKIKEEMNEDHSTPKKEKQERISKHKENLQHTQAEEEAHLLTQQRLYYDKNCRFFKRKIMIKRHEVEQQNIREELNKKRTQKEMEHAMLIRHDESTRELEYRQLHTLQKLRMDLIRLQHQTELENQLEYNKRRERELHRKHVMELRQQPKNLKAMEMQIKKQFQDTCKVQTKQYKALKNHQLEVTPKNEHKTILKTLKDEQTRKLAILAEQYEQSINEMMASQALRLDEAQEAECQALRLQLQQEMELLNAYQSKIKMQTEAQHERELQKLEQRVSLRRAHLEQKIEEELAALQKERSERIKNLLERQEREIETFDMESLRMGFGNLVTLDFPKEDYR
| SMILES | remaining activity |
| --- | --- |
| O=C1NC(=O)C(c2cn(CCCn3ccnc3)c3ccccc23)=C1Nc1ccccc1 | 76.5% |
| COc1ccc(CNC(=O)Nc2ncc([N+](=O)[O-])s2)cc1 | 98.5% |
| NCCNc1ncc(C(N)=O)c(Nc2cccc(C(F)(F)F)c2)n1 | 83.6% |
| Oc1ccc(-c2nc(-c3ccncc3)c(-c3ccc(F)cc3)[nH]2)cc1 | 103% |
| Cc1nc(-c2ccccc2)c(-c2ccncc2)o1 | 99% |
| OCC(O)CCON=C1C(c2c(O)[nH]c3ccccc23)=Nc2ccccc21 (stereo not drawn) | 55.4% |
| CCOC(=O)c1c(C)[nH]c(/C=C2\C(=O)Nc3ccccc32)c1C | 87.6% |
| O=C(CCCc1ccc(-c2ccccc2F)cc1)Nc1ccc(O)cc1 | 91.4% |
| Nc1ncnc2n[nH]c(Nc3ccc(F)cc3)c12 | 92.4% |
| O=C1NC(=O)C(c2cn(CCCO)c3ncccc23)=C1c1cnccn1 | 88.2% |
| O=S(=O)(c1cccc2cnccc12)N1CCCNCC1 | 97.3% |
| Cc1ccc(NC(=O)c2ccc(CN3CCN(C)CC3)cc2)cc1Nc1nc(-c2cccnc2)cs1 | 95.4% |
| O=C(O)c1ccc2c3c1cccc3c(=O)n1c3ccccc3nc21 | 93.1% |
| O=C(Nc1cccc(Nc2cc(Nc3cccc(C(F)(F)F)c3)ncn2)c1)C1CC1 | 98.7% |

Series 3
Cell line: mouse MPNST tumor cells
Technique: high-content nuclear imaging
Measured: cell number
Concentration: 10 µM
Time: 12 h
Setting: mean of 2 replicates
Reference: plate mean
Direction: higher = more cells
| Compound | nuclei count |
| --- | --- |
| N[C@H](C(=O)O)[C@H](OCc1ccccc1)C(=O)O (racemic) | 1.36 z-score |
| O=C1c2c(O)ccc(O)c2C(=O)c2c(NCCNCCO)ccc(NCCNCCO)c21 | -4.89 z-score and -4.94 z-score |
| CN(CCOc1ccc(-c2ccc3c(c2)OCO3)cc1C(C)(C)C)CC(=O)O | 2.26 z-score |
| CCCc1nc(C(C)(C)O)c(C(=O)OCc2oc(=O)oc2C)n1Cc1ccc(-c2ccccc2-c2nnn[nH]2)cc1 | 0.522 z-score |
| CC1C(=O)OC2C(O)C34C5CC(C(C)(C)C)C36C(OC(=O)C6O)OC4(C(=O)O5)C12O (stereo not drawn) | 0.559 z-score |
| NNC(=O)c1sc2cccc(Cl)c2c1Cl | -0.714 z-score |

Series 4
Compound: CCC(=N\O)/C(C)=C/c1ccc(F)cc1
Concentration: 1 µM
| target | read-out | technique | setting | reference | remaining binding [%] |
| --- | --- | --- | --- | --- | --- |
| TIE1 (Homo sapiens, UniProt P35590) | cell-free assay | competition with immobilised ligand | – | – | 63 |
| NIM1K (Homo sapiens, UniProt Q8IY84) | cell-free assay | competition with immobilised ligand | – | – | 94 |
| PRKD2 (Homo sapiens, UniProt Q9BZL6) | cell-free assay | competition with immobilised ligand | – | – | 99 |
| MTOR (Homo sapiens, UniProt P42345) | cell-free assay | competition with immobilised ligand | – | – | 100 |
| FYN (Homo sapiens, UniProt P06241) | cell-free assay | competition with immobilised ligand | – | – | 100 |
| RET (Homo sapiens, UniProt P07949) | cell-free assay | competition with immobilised ligand | – | – | 100 |
| MAP3K10 (Homo sapiens, UniProt Q02779) | cell-free assay | competition with immobilised ligand | – | – | 100 |
| STK26 (Homo sapiens, UniProt Q9P289) | cell-free assay | competition with immobilised ligand | – | – | 81 |
| ERBB2 (Homo sapiens, UniProt P04626) | cell-free assay | competition with immobilised ligand | – | – | 83 |
| EPHA6 (Homo sapiens, UniProt Q9UF33) | cell-free assay | competition with immobilised ligand | – | – | 67 |
| CDK8 (Homo sapiens, UniProt P49336) | cell-free assay | competition with immobilised ligand | – | – | 100 |
| NEK1 (Homo sapiens, UniProt Q96PY6) | cell-free assay | competition with immobilised ligand | – | – | 94 |
| Cyclin-dependent kinase 4, with cyclin D1 (CDK4, Homo sapiens, UniProt P11802) | cell-free assay | competition with immobilised ligand | – | – | 78 |
| CDK16 (Homo sapiens, UniProt Q00536) | cell-free assay | competition with immobilised ligand | – | – | 86 |
| COQ8B (Homo sapiens, UniProt Q96D53) | cell-free assay | competition with immobilised ligand | – | – | 84 |
| HUNK (Homo sapiens, UniProt P57058) | cell-free assay | competition with immobilised ligand | – | – | 76 |
| MAPK12 (Homo sapiens, UniProt P53778) | cell-free assay | competition with immobilised ligand | – | – | 100 |
| PIK3CG (Homo sapiens, UniProt P48736) | cell-free assay | competition with immobilised ligand | – | – | 100 |
| ABL1 (Homo sapiens, UniProt P00519, F317I) | – | KINOMEscan | F317I mutant, nonphosphorylated | control | 100 |
| TSSK3 (Homo sapiens, UniProt Q96PN8) | cell-free assay | competition with immobilised ligand | – | – | 99 |
| ACVR1 (Homo sapiens, UniProt Q04771) | cell-free assay | competition with immobilised ligand | – | – | 80 |
| MAP3K13 (Homo sapiens, UniProt O43283) | cell-free assay | competition with immobilised ligand | – | – | 96 |
| PHKG2 (Homo sapiens, UniProt P15735) | cell-free assay | competition with immobilised ligand | – | – | 90 |
| MAP3K9 (Homo sapiens, UniProt P80192) | cell-free assay | competition with immobilised ligand | – | – | 77 |
| IRAK1 (Homo sapiens, UniProt P51617) | cell-free assay | competition with immobilised ligand | – | – | 79 |

Series 5
Species: human
Medium: microsomes or S9
Concentration: 2 µM
Time: 0.5 h
| SMILES | remaining compound [%] |
| --- | --- |
| O=C1CN(c2nc(C3CCCC3)nc3c2CCOCC3)CCN1 | 94.7 |
| C1=NN(c2ccccc2)C2c3ccccc3OCC12 (stereo not drawn) | 62.7 |
| C=C(C)[C@@H]1CCC2=CC(=O)C[C@@H](C)[C@]2(C)C1 | 4.68 |
| O=c1ccccn1Cc1nc2cc(Cl)ccc2n1CCO | > 99 |
| COCCOCC(OC(=O)c1ccc(NC(N)=O)cc1)C(C)(C)C (stereo not drawn) | 44.4 |

Mixed results
| Compound | organism | assay | system | setting | scale | endpoint | value |
| --- | --- | --- | --- | --- | --- | --- | --- |
| CN(C(=O)c1ccn2ncc(-c3ccc(C(N)=O)cc3)c2c1)c1ccc(C#N)cn1 | Cryptosporidium parvum | faecal qPCR | IFN-γ knockout mouse | oral, 10 mg/kg | reference: vehicle | oocyst shedding | 3.95 log oocysts/g faeces and 3.84 log oocysts/g faeces and 4.3 log oocysts/g faeces |

Repeated from above (series 4):
| target | read-out | technique | setting | reference | remaining binding [%] |
| --- | --- | --- | --- | --- | --- |
| HUNK (Homo sapiens, UniProt P57058) | cell-free assay | competition with immobilised ligand | – | – | 76 |
| MAP3K10 (Homo sapiens, UniProt Q02779) | cell-free assay | competition with immobilised ligand | – | – | 100 |
| TSSK3 (Homo sapiens, UniProt Q96PN8) | cell-free assay | competition with immobilised ligand | – | – | 99 |
| TIE1 (Homo sapiens, UniProt P35590) | cell-free assay | competition with immobilised ligand | – | – | 63 |
| NEK1 (Homo sapiens, UniProt Q96PY6) | cell-free assay | competition with immobilised ligand | – | – | 94 |
| Cyclin-dependent kinase 4, with cyclin D1 (CDK4, Homo sapiens, UniProt P11802) | cell-free assay | competition with immobilised ligand | – | – | 78 |
| ACVR1 (Homo sapiens, UniProt Q04771) | cell-free assay | competition with immobilised ligand | – | – | 80 |
